Measured values pooled from the literature.
Compare with care: the assays were run in different laboratories. Numbers after ± are the reported error.
CHRM5: Muscarinic acetylcholine receptor M5 (CHRM5, Homo sapiens, UniProt P08912)
Chain of UniProt P08912 (whole entry, looked up): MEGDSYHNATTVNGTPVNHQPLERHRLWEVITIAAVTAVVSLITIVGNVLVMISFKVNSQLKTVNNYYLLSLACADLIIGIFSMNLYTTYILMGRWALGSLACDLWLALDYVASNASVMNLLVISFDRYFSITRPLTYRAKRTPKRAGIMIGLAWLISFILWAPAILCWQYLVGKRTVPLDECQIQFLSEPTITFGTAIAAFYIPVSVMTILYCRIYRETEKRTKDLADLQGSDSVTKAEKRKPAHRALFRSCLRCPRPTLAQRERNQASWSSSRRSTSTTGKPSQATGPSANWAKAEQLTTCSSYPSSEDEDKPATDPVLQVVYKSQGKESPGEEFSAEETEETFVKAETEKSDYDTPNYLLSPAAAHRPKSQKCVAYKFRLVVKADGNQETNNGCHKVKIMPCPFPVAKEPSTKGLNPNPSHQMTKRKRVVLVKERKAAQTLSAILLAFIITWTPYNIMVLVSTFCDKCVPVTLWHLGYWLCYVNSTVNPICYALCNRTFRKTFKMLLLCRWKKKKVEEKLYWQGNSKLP
TDP1: Tyrosyl-DNA phosphodiesterase 1 (TDP1, Homo sapiens, UniProt Q9NUW8)
Chain of UniProt Q9NUW8 (whole entry, looked up): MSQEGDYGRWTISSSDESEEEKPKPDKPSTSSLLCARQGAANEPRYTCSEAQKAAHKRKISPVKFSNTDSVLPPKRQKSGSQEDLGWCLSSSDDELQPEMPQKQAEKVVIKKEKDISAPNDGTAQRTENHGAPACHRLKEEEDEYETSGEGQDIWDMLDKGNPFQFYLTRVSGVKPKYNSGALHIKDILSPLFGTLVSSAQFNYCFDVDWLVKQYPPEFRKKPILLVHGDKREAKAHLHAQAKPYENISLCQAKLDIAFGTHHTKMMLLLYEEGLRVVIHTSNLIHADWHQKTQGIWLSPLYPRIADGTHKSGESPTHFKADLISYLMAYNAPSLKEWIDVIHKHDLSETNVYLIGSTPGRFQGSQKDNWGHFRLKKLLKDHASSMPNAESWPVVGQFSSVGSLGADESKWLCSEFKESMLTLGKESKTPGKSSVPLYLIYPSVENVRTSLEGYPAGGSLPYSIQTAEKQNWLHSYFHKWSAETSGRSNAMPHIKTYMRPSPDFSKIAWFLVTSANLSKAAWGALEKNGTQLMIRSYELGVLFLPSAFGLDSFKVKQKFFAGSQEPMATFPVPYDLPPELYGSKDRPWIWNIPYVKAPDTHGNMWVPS
NTSR1: Neurotensin receptor type 1 (NTSR1, Homo sapiens, UniProt P30989)
Chain of UniProt P30989 (whole entry, looked up): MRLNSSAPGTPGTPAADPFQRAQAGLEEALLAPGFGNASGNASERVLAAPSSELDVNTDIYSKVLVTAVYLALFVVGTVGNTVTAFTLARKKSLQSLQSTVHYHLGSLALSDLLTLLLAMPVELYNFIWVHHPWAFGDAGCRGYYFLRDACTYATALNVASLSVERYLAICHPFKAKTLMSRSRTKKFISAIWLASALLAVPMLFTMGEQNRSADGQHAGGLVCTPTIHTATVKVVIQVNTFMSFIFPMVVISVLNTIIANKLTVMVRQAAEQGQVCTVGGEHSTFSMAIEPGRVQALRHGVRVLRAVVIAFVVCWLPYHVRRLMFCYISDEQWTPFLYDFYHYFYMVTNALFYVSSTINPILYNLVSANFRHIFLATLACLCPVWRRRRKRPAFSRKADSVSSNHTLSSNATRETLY
Chain of UniProt P24530 (whole entry, looked up): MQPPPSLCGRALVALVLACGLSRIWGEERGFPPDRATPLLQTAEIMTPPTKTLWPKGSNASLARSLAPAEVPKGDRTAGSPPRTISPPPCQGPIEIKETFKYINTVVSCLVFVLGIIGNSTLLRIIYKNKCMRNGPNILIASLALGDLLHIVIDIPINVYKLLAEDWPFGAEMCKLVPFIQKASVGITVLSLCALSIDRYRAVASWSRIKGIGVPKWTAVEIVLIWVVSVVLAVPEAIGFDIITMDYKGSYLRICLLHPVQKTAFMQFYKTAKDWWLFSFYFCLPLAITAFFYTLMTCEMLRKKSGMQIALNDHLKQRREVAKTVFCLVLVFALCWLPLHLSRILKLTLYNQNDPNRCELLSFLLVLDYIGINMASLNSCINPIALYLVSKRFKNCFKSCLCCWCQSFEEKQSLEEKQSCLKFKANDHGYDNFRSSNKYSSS
Chain of UniProt O09047 (whole entry, looked up): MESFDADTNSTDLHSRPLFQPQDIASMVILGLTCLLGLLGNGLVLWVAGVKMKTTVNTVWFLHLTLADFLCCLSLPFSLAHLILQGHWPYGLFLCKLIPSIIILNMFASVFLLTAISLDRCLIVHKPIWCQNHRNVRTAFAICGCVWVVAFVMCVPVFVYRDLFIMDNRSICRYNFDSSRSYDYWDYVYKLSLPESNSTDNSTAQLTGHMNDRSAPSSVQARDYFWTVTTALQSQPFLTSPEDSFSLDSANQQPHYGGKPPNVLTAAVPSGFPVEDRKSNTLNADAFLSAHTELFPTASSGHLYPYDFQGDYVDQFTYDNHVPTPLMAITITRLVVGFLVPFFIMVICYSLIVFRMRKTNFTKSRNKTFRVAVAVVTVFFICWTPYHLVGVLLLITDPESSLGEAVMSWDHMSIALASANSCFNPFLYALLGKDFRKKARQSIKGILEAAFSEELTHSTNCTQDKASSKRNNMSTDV
Chain of UniProt Q969F8 (whole entry, unmodified, looked up): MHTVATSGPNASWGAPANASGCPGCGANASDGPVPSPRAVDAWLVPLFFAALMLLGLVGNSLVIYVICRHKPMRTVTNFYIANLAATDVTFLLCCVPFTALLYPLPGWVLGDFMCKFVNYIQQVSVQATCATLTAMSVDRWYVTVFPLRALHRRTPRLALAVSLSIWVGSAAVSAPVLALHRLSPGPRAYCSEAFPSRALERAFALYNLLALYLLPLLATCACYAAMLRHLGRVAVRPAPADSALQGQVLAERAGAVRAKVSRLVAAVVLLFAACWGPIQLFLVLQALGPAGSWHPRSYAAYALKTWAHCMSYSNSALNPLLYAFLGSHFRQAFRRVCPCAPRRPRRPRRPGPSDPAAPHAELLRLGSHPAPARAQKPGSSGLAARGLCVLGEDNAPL
Chain of UniProt Q9NSD7 (whole entry, unmodified, looked up): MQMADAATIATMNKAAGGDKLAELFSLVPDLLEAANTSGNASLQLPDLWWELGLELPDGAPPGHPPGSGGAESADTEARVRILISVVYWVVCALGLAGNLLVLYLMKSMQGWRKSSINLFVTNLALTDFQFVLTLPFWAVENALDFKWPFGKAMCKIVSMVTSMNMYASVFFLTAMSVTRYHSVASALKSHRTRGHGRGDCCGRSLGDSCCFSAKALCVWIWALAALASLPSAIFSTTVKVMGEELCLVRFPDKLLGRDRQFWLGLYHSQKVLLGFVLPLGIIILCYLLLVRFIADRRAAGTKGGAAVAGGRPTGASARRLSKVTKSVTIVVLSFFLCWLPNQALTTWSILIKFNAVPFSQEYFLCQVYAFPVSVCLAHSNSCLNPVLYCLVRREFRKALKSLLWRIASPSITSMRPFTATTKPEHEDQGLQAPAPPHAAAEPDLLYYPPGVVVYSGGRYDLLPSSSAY

SMILES	target	test	system	conditions	scale	endpoint	value
CCCCCCOc1ccc(C(=O)OCCN2CC=CCC2)cc1	CHRM5		membranes	10 µM, 15 h, added: carbachol	relative to: control	Emax	1.45 ± 0.09 fold
COC(=O)c1ccc(C=NOCc2ccc3nc(-c4ccccc4)c(Nc4ccc(C(=O)O)cc4)n3c2)cc1 (mixture of isomers)	TDP1	enzyme activity, inhibitor		100 µM, unpurified compound		inhibition	28.7%
CCCN(C)c1ccc2nc(C3CC3)nc(N3CCC(c4ccccc4OC)CC3)c2c1	NTSR1	β-arrestin recruitment, agonist	HEK-293T			Emax	137%
CC[C@H](C)[C@@H]1NC(=O)[C@H](Cc2ccccc2)NC(=O)[C@H](CCC(=O)O)NC(=O)[C@H](CCCNC(=N)N)NC(=O)CNC(=O)[C@@H](NC(=O)[C@H](CC(C)C)NC(=O)[C@H](CCCNC(=N)N)NC(=O)[C@@H](NC(=O)CNC(=O)[C@H](Cc2ccc(O)cc2)NC(=O)[C@@H]2CCCN2C(=O)[C@H](C)NC(=O)[C@H](C)NC(=O)[C@@H](N)CCCNC(=N)N)C(C)C)CSSC[C@@H]2NC(=O)[C@@H](NC(=O)[C@H](CO)NC(=O)[C@H](CO)NC(=O)[C@H](CO)NC(=O)[C@H](CC(C)C)NC(=O)CNC(=O)[C@H](C)NC(=O)[C@H](CC(C)C)NC(=O)[C@@H](NC(=O)[C@@H](N)CC(=O)O)C(C)C)CSSC[C@H](NC(=O)CNC(=O)[C@H](Cc3c[nH]c4ccccc34)NC(=O)[C@H](CCCCN)NC2=O)C(=O)N[C@@H](CO)C(=O)N[C@@H](CCCCN)C(=O)N[C@@H](CO)C(=O)N[C@@H](CCC(=O)O)C(=O)N[C@@H]([C@@H](C)CC)C(=O)N[C@@H](CO)C(=O)N[C@@H](CO)C(=O)N[C@@H](CC(C)C)C(=O)N[C@H](C(=O)O)CSSC[C@@H](C(=O)NCC(=O)NCC(=O)N[C@@H](CO)C(=O)N[C@@H](CCCNC(=N)N)C(=O)N[C@@H](Cc2c[nH]c3ccccc23)C(=O)O)NC(=O)[C@H]([C@@H](C)O)NC(=O)[C@H](Cc2ccccc2)NC(=O)[C@H]([C@@H](C)CC)NC(=O)[C@H](C(C)C)NC(=O)[C@H](C)NC(=O)[C@H](CCCNC(=N)N)NC1=O	RXFP3 (Homo sapiens, UniProt Q9NSD7, F131A)		HEK-293T		relative to: wild type	Emax	83.2 ± 4.19%
COc1ccccc1C1CCN(c2nc(C3(C)CC3)nc3ccc(N(C)CCO)cc23)CC1	NTSR1	β-arrestin recruitment, agonist	HEK-293T			Emax	106%
CNC(=N)NCCC[C@H](NC(=O)[C@H](CC(C)C)NC(=O)NNC(=O)[C@H](Cc1ccccc1)NC(=O)[C@@H](NC(=O)[C@H](CC(N)=O)NC(=O)[C@@H]1C[C@@H](O)CN1C(=O)[C@@H](Cc1ccc(O)cc1)NC(C)=O)[C@@H](C)O)C(=O)N[C@@H](Cc1c[nH]c2ccccc12)C(N)=O	KiSS-1 receptor (KISS1R, Homo sapiens, UniProt Q969F8, S243A)	inositol phosphate, agonist	HEK293			Emax	55.3%
C=CCn1c(=O)c2ccccc2n2c(SCC(=O)NC3CC3)nnc12	CHRM5	receptor activation, agonist		concentration not given, 16 h		Emax	114 ± 10%
CCCC[C@H](NC(=O)[C@H](CC(C)C)NC(=O)[C@H](CO)NC(=O)[C@H](CO)NC(=O)[C@H](C)NC(=O)[C@H](CO)NC(=O)[C@H](C)N)C(=O)N[C@@H](CC(=O)O)C(=O)N[C@@H](CCCCN)C(=O)N[C@@H](CCC(=O)O)C(=O)N[C@@H](C)C(=O)N[C@H](C(=O)N[C@@H](Cc1ccc(O)cc1)C(=O)N[C@@H](Cc1ccccc1)C(=O)N[C@@H](C)C(=O)N[C@@H](Cc1c[nH]cn1)C(=O)N[C@@H](CC(C)C)C(=O)N[C@@H](CC(=O)O)C(=O)N[C@H](C(=O)N[C@H](C(=O)N[C@@H](Cc1c[nH]c2ccccc12)C(=O)O)[C@@H](C)CC)[C@@H](C)CC)C(C)C	EDNRB (Homo sapiens, UniProt P24530)	agonist	HEK293	ETBR/ETAR ratio 1:2		Emax	49 ± 6%
CCCCCCOc1ccc(C(=O)OCC[N+]2(C)CC=CCC2)cc1 (stereo not drawn)	CHRM5		membranes	1 µM, 15 h, added: carbachol	relative to: control	Emax	1.35 ± 0.06 fold
O=C(O)c1ccc(Nc2c(-c3ccc(CON=CC4C(=O)Oc5ccc(Cl)cc5C4=O)cc3)nc3cc(-c4ccccc4)ccn23)cc1 (mixture of isomers)	TDP1	enzyme activity, inhibitor		100 µM, unpurified compound		inhibition	102%
Cc1cc(C(c2ccc(Cl)cc2)c2ccc(Cl)cc2)sc1C(=O)N[C@@H](CCCN=C(N)N)C(=O)O	C3a anaphylatoxin chemotactic receptor (C3ar1, Mus musculus, UniProt O09047)	cAMP response, agonist, GloSensor cAMP		Gi signalling		Emax	51.1 ± 1.38%
CCCCOc1ccc(C(=O)OCCN2CC=CCC2)cc1	CHRM5		membranes	10 µM, 15 h, added: carbachol	relative to: control	Emax	1.64 ± 0.06 fold
